# Measured values gathered from unrelated publications.
# Compare with care: the assays were run in different laboratories. “And” joins repeats or separate records; there may be more than shown. ± marks the error that the study gave.
SMILES,target,test,test system,conditions,scale,endpoint,value
Fc1ccc(F)c(Cc2c[nH]c3ncc(C(F)(F)F)cc23)c1,"Fibroblast growth factor receptor 1 (FGFR1, Homo sapiens, UniProt P11362)","enzyme activity, inhibitor",,0.1 µM,,inhibition,29%
CCCN(CC(=O)N(CCC)CC(=O)N(CCC)CC(=O)N(CCC)CC(=O)N(CCC)CC(=O)N(CCC)CC(=O)N(CCC)CC(=O)N(CCC)CC(=O)N(CC(N)=O)Cc1cn(CCCNC(=O)CCCOc2cccc(-c3nc4ccc(-c5nc6ccc(N7CCN(C)CC7)cc6[nH]5)cc4[nH]3)c2)nn1)C(=O)CNCc1cn(CCCNC(=O)CCCOc2cccc(-c3nc4ccc(-c5nc6ccc(N7CCN(C)CC7)cc6[nH]5)cc4[nH]3)c2)nn1,MBNL1–r(CUG)109 complex,MBNL1 displacement,0.65 pmol r(CUG)109,"unit not given, with: yeast tRNA 3.7 µM",relative to: monomer 2 IC50 per module,multivalent effect,< 1.8
CNc1ccccc1C(=O)O[C@H]1C[C@H](n2cnc3c(N)ncnc32)O[C@@H]1COP(=O)(O)OP(=O)(O)O,"Unconventional myosin-Va (Gallus gallus, UniProt Q02440, D297C/G292C/I296C/S293C/V295G)",FRET,compound complex,"4 °C, with: 2 mM MgCl2",,donor-acceptor distance,15.5 Å
COc1cc(-c2cnc3nc2NCCCNS(=O)(=O)c2cccc(c2)N3)ccc1F,"Ephrin type-A receptor 7 (EPHA7, Homo sapiens, UniProt Q15375)",differential scanning fluorimetry,,10 µM,higher = stronger binding,thermal shift ΔTm,0.3 K
C=C1CN(S(=O)(=O)c2ccc(C)cc2)CCCN(Cc2ccccc2)CCCN(S(=O)(=O)c2ccc(C)cc2)C1,"T-cell surface glycoprotein CD4 (CD4, Homo sapiens, UniProt P01730)",SILAC mass spectrometry,"SUP-T1, crude membrane fraction","10 µM, 17 h, reverse labelling",relative to: DMSO over compound,protein level ratio,> 3 and 3.61
COC(=O)c1ccc(CNC(=O)[C@@H]2C[C@@H](O)CN2C(=O)CC(C)(C)C)cc1,"von Hippel-Lindau disease tumor suppressor, with Elongin B/C (VHL, Homo sapiens, UniProt P40337)",isothermal titration calorimetry,,"concentration not given, 25 °C",,binding enthalpy (ΔH),-3.42 ± 0.12 kcal/mol
NC(=O)C1CCNC(=O)C(Cc2ccc([N+](=O)[O-])cc2)NC(=O)C(Cc2ccco2)NC(=O)C(CC2CC2)NC(=O)C=CC(=O)N1 (stereo not shown),"Receptor tyrosine-protein kinase erbB-4 (ERBB4, Homo sapiens, UniProt Q15303)",DNA-templated library selection,,one selection round,,enrichment factor,1.7
Cn1ccc2c(N3CCN(CCCCOc4ccc5c(c4)NC(=O)CC5)CC3)cccc21,"D(2) dopamine receptor (DRD2, Homo sapiens, UniProt P14416)","β-arrestin recruitment, agonist, BRET",,,,Emax,33%
CC(=O)N[C@H]1[C@@H](O[C@H](C)[C@H](NC(=O)[C@@H](NC(=O)CNC(=O)[C@@H](N)Cc2c[nH]cn2)C(C)C)C(=O)N[C@@H](CO)C(=O)N[C@@H](C)C(=O)N2CCC[C@H]2C(=O)N[C@@H](CC(=O)O)C(N)=O)O[C@H](CO)[C@H](O)[C@@H]1O[C@@H]1O[C@H](CO)[C@H](O)[C@H](O)[C@H]1O,"Galectin-3 (LGALS3, Homo sapiens, UniProt P17931)","binding, isothermal titration calorimetry",,full-length protein,,–ΔG,4.72 kcal/mol
C=C1C(=O)O[C@H]2[C@H]1CCC(COC(=O)CCCCCCCCCCCNC(=O)CCCC[C@@H]1SC[C@@H]3NC(=O)N[C@@H]31)=C1CC[C@@](C)(O)[C@@H]12,"Dihydrofolate reductase (DHFR, Homo sapiens, UniProt P00374)",competitive pull-down LC-MS/MS,M9-ENL1 cell lysate,with: probe 10 µM,relative to: MCL-treated control,enrichment ratio,3 fold
CN[C@@H](C)C(=O)N[C@H]1CN(C(=O)Cc2ccccc2)CC[C@H]2CC[C@@H](C(=O)NCc3ccccc3)N2C1=O,"E3 ubiquitin-protein ligase XIAP, BIR3 domain with caspase-9 (XIAP, Homo sapiens, UniProt P98170)",antagonist,,"5 µM, BIR3 domain",,caspase-9 activity restored,50%
CSCC[C@H](NC(=O)[C@H](CCC(N)=O)NC(=O)[C@H](Cc1ccccc1)NC(=O)CNC(=O)CNC(C)=O)C(=O)N[C@@H](C)C(=O)N[C@@H](CC(C)C)C(=O)N[C@H](C(=O)N1CCC[C@H]1C(=O)N[C@H](C(=O)N[C@H](C(=O)O)C(C)C)C(C)C)[C@@H](C)O,"Heat shock cognate 71 kDa protein, substrate-binding domain (HSPA8, Homo sapiens, UniProt P11142)",competition fluorescence polarization,,concentration not given,,binding,inactive
COc1cc2c(cc1OC)C(c1ccc(F)cc1F)N(CCCOc1ccc(CCC(=O)O)cc1)CC2 (stereo not shown),"Peroxisome proliferator-activated receptor delta (PPARD, Homo sapiens, UniProt Q03181)","agonist, Gal4-LBD luciferase reporter",,1 nM to 10 µM,relative to: GW501516,transactivation,no effect

# Repeated from above:
SMILES,target,test,test system,conditions,scale,endpoint,value
COC(=O)c1ccc(CNC(=O)[C@@H]2C[C@@H](O)CN2C(=O)CC(C)(C)C)cc1,"von Hippel-Lindau disease tumor suppressor, with Elongin B/C (VHL, Homo sapiens, UniProt P40337)",isothermal titration calorimetry,,"concentration not given, 25 °C",,binding enthalpy (ΔH),-3.42 ± 0.12 kcal/mol
NC(=O)C1CCNC(=O)C(Cc2ccc([N+](=O)[O-])cc2)NC(=O)C(Cc2ccco2)NC(=O)C(CC2CC2)NC(=O)C=CC(=O)N1 (stereo not shown),"Receptor tyrosine-protein kinase erbB-4 (ERBB4, Homo sapiens, UniProt Q15303)",DNA-templated library selection,,one selection round,,enrichment factor,1.7
